# Assay results from different studies.
# Parts stem from different laboratories: compare values within a part only. Positions count from the first letter of the parent shown.
# UniProt Q9Y2X8, sequence (whole entry, looked up): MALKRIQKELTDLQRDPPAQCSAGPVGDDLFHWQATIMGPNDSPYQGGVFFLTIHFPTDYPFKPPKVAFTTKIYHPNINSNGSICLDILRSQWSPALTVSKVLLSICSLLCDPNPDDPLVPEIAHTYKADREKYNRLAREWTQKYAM

# Sample 1 — method: EMSA with sequencing; form: double-stranded DNA, one strand shown; matrix: in vitro; concentration: 10 and 20 nM; relative to: negative control set to 0; reading: higher = stronger binding
# Target: Hepatocyte nuclear factor 3-alpha (Foxa1, Mus musculus, UniProt P35582, residues 1-468, full length assumed)
# UniProt P35582, sequence (whole entry, looked up): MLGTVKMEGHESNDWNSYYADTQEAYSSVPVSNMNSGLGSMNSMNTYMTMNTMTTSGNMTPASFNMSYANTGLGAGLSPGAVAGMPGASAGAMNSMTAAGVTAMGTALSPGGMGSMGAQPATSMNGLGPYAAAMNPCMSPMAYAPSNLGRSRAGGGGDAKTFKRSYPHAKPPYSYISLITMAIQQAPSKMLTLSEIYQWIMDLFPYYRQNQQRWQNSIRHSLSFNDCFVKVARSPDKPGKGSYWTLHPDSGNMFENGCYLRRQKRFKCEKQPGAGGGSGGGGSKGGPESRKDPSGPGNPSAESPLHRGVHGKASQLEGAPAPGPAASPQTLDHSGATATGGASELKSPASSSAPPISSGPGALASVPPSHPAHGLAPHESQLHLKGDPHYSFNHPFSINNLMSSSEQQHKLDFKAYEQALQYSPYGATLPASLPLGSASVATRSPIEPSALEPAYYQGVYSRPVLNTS
# Notes: whole designed probe, mean of two concentrations, ends assumed
Sequence,normalised bound fraction
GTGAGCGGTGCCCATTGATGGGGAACGCTCGAGGCTGGGCGGACAGCTCCCTTTCTCCCGGAGTTGACGTCTGATGTGGGTTATAAATCCCGCTGTGTAAACGTCTGTCCACTCACTGGGCAAACATTCCTACACCCGCCCTCCCCGGGGAGCTCCAGGGTGCAGGGCGTGGACCTGCCCAGCCCTTCAGGGCCAGAAGGCACGGTGGAGCCGGTCTGCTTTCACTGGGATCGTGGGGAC,0.205 ratio
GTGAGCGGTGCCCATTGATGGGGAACGTAAGGACCTCAATTTATTTTTTTCCCTAAGAGCTAATGAATTTTCCCAGTATCACCCACTGAGCCGTCCTCCCCTCTTTGTGATGCCACGTTTGTTTACCTTGTCCAGACTCATATGTTCTGCAACATTCAGCTATTTGTCAATTCTTATGCCAGTACTTCCACTGTTACCATCATCAATTTAAAGATTACTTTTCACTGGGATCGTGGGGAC,0.36 ratio
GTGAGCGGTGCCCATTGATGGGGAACATCTTCCCCCTCTTCCTTGCCCCACCAGCTCACCTTCCCGGGTATCTGCAAATAAGTATTTATTTTCAAGCCGGCATTCGTTAACCCTCTTCACGCGCATACTGCACATTGGTCTGGATGAATCATGGTCCTTTGGCGACGCCAGGCTCCGGGAGAGCAAAGCACCGTGTCAGGGCCATGATCCGGGGTGGCCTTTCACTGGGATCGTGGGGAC,0.15 ratio
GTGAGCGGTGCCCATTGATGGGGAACTCTCATTAAAACTTGGCAAATCTTTGGATCTGCTTAGAGACACTGAATGTATATAGAAGAATAACTATTATTATTTATGCTTATAAAATGTTTGTTTACATTGTTTTTCTGCCTTTCTATAACCGTCCTGTTGTCTTGGTGACACTGGTCTATTCCAAAAGGTTTTGCCCAACTCATGTAACTAATAAAGCAGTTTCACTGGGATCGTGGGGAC,0.486 ratio
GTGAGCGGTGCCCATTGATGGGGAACATCTTCCCCCTCTTCCTTGCCCCACCAGCTCACCTTCCCGGGTTATTTGCAGATAGGAAATTAATATAAGCCGGCATTCGTTAACCCTCTTCTGGCGCAAACTGCCAGAGCAAACAGATGAATCATGGTCCTTTGGCGACGCCAGGCTCCGGGAGAGCAAAGCACCGTGTCAGGGCCATGATCCGGGGTGGCCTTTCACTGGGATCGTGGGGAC,0.223 ratio

# Sample 2 — method: protein binding microarray; form: double-stranded DNA, one strand shown; matrix: in vitro; concentration: not given; relative to: not given; reading: higher = stronger binding
# Target: Histone acetyltransferase KAT6A, both winged helices, GST fusion (KAT6A, Homo sapiens, UniProt Q92794, residues 1-181)
# Notes: 8-mer, flanks averaged, mean of 2 arrays, mostly near background
# Construct (chain): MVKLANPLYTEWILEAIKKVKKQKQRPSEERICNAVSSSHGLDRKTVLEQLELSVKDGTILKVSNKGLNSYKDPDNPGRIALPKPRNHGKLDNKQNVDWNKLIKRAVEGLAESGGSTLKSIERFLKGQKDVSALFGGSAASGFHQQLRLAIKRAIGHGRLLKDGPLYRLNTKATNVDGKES
Sequence,E-score
ATACGACC,0.0679
AAGAGTCG,-0.00637
CGCATGTC,0.208
AGATCCAT,-0.109
ATTCGCCC,0.0824
CGCCCTTC,0.149
ACCAAGAG,-0.203
AATGTGTG,-0.0896

# Sample 3 — target: CEBPA, bZIP domain (human); method: DHFR protein complementation; matrix: yeast; relative to: wild-type JUN-FOS pair; reading: higher = stronger binding
# Notes: single substitutions, most at no-binding floor
# Starting sequence: JUN, bZIP domain (human); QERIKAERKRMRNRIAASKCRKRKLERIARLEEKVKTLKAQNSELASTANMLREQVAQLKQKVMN; partner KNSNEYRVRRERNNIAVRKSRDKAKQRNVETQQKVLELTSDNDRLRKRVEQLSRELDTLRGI
Variant,binding fitness [natural log]
K36G,-1.44
L38H,-1.58
S47I,-1.46
E33D,-1.42
T37M,-1.39
L38T,-1.45
K34N,-1.48
Q58R,-1.56

# Further values, each from its own experiment
Sequence,target,test,system,conditions,scale,endpoint,result
ASPKIFQKTKCSICNSALELPSVHFLCGHSFHQHCFESYSESDADCPTCLPENRKVMDMI (VPS11 RING domain (UniProt Q9H270)),UBE2D4 UBC core domain (UniProt Q9Y2X8),yeast two-hybrid,yeast,mostly zero background,"relative to: not given, higher = stronger interaction",lacZ reporter activity,0
